Assay results of several laboratories.
Numbered parts are unrelated; each lists some results of a single study. Several values in a cell are separate wells, animals, samples, runs or records.
Sequence of UniProt Q8WTQ7 (whole entry, looked up): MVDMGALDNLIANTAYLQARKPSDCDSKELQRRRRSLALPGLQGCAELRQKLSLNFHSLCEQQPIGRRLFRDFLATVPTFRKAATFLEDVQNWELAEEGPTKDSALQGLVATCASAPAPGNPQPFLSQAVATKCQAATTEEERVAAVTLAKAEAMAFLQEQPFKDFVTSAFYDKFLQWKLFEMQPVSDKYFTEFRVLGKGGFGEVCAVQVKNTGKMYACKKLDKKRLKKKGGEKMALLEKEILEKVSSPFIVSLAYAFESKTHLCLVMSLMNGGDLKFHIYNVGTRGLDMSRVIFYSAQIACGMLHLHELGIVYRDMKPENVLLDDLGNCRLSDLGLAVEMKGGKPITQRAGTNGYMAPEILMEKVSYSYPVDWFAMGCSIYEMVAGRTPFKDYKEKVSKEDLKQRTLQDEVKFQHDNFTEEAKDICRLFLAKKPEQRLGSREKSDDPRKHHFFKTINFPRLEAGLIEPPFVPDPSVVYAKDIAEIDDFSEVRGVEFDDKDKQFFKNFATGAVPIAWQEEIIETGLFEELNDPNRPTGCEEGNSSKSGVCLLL
Sequence of UniProt P0C264 (whole entry, looked up): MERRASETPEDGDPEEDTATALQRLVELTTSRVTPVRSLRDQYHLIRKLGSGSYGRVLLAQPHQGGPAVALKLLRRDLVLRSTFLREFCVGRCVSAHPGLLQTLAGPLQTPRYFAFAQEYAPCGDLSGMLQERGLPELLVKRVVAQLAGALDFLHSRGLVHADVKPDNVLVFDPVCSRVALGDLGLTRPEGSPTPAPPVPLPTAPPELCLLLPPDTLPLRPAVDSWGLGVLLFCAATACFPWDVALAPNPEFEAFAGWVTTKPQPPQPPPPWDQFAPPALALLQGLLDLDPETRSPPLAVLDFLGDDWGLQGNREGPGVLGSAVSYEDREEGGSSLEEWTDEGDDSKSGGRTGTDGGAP
Sequence of UniProt Q9UIK4 (whole entry, looked up): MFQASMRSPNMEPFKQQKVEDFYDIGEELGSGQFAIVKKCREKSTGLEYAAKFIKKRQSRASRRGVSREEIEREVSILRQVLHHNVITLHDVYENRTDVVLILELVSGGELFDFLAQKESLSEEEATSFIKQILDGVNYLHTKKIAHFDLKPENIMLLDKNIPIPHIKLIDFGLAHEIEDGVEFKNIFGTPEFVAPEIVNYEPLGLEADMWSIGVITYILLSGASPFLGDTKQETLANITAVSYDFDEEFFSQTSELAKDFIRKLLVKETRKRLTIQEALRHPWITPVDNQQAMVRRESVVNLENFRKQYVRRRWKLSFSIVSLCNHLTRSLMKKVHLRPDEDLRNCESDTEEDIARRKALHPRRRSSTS

Sample 1
SMILES: CNCc1ccccc1-c1csc([C@@H](C)Nc2nc(C)nc3cc(OC)c(OC)cc23)c1
Effect on: cell-free assay
Method: competition with immobilised ligand
Concentration: 1 µM
The remaining binding was 100% (Death-associated protein kinase 2 (DAPK2, Homo sapiens, UniProt Q9UIK4)).
For Microtubule-associated serine/threonine-protein kinase 1 (MAST1, Homo sapiens, UniProt Q9Y2H9): remaining binding read 76%.
It gave 89% for remaining binding (MAP/microtubule affinity-regulating kinase 3 (MARK3, Homo sapiens, UniProt P27448)).
For TRAF2 and NCK-interacting protein kinase (TNIK, Homo sapiens, UniProt Q9UKE5): remaining binding read 85%.
Uncharacterized serine/threonine-protein kinase SBK3 (SBK3, Homo sapiens, UniProt P0C264) — remaining binding: 100%.
It gave 73% for remaining binding (Proto-oncogene tyrosine-protein kinase receptor Ret (RET, Homo sapiens, UniProt P07949, V804L)).
It gave 93% for remaining binding (Vascular endothelial growth factor receptor 2 (KDR, Homo sapiens, UniProt P35968)).
Serine/threonine-protein kinase 33 (STK33, Homo sapiens, UniProt Q9BYT3) — remaining binding: 45%.
Tyrosine-protein kinase CSK (CSK, Homo sapiens, UniProt P41240) — remaining binding: 100%.
It gave 90% for remaining binding (Epidermal growth factor receptor (EGFR, Homo sapiens, UniProt P00533)).
The remaining binding was 84% (Receptor tyrosine-protein kinase erbB-2 (ERBB2, Homo sapiens, UniProt P04626)).
It gave 92% for remaining binding (3-phosphoinositide-dependent protein kinase 1 (PDPK1, Homo sapiens, UniProt O15530)).
Mitogen-activated protein kinase kinase kinase 1 (MAP3K1, Homo sapiens, UniProt Q13233) — remaining binding: 72%.
Serine/threonine-protein kinase 32C (STK32C, Homo sapiens, UniProt Q86UX6) — remaining binding: 60%.
It gave 69% for remaining binding (Tyrosine-protein kinase ABL1, non-phosphorylated (ABL1, Homo sapiens, UniProt P00519, Q252H)).
Serine/threonine-protein kinase 17A (STK17A, Homo sapiens, UniProt Q9UEE5) — remaining binding: 100%.
It gave 87% for remaining binding (Cyclin-dependent kinase 16 (CDK16, Homo sapiens, UniProt Q00536)).
For Rhodopsin kinase GRK7 (GRK7, Homo sapiens, UniProt Q8WTQ7): remaining binding read 83%.

Sample 2
Target: Calcium/calmodulin-dependent protein kinase type II subunit alpha (CAMK2A, Homo sapiens, UniProt Q9UQM7)
Sequence of UniProt Q9UQM7 (whole entry, looked up): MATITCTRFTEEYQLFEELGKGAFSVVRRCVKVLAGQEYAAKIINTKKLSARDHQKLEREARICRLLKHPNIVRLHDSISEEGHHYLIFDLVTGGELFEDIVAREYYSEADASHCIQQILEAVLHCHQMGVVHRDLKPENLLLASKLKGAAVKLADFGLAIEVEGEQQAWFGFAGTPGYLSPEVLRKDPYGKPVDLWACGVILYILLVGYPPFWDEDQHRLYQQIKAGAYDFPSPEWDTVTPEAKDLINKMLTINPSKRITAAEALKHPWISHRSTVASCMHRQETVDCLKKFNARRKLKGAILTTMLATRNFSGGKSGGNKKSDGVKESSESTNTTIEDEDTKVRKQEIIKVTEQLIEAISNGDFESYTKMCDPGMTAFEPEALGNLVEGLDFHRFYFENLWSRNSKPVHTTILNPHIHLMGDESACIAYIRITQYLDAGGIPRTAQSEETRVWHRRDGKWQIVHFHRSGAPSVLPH
Effect on: enzyme activity
Mode: inhibitor
Concentration: 10 µM
`O=C(O)c1ccc[nH]1` has an inhibition of 1%.
`OC/C=C/c1ccccc1` has an inhibition of -29%.
For `NCCCCC(=O)O`, the inhibition was -19%.
With `COc1cc2c(c(OC)c1OC)-c1c(cc3c(c1O)OCO3)C[C@H](C)[C@@H](C)C2` the inhibition was 17%.
`COC(=O)[C@H](Cc1ccccc1)NC(=O)[C@@H](N)CC(=O)O` gave an inhibition of -3%.
With `CC(=O)O[C@]1(C(C)=O)CC[C@H]2[C@@H]3C=C(Cl)C4=CC(=O)[C@@H]5C[C@@H]5[C@]4(C)[C@H]3CC[C@@]21C` the inhibition was -9%.
With `C[C@@H]1CC[C@@]2(OC1)O[C@H]1C[C@H]3[C@@H]4CC=C5C[C@@H](O)C[C@@H](O[C@@H]6O[C@H](C)[C@H](O)[C@H](O[C@@H]7OC[C@@H](O)[C@H](O)[C@H]7O)[C@H]6O[C@@H]6O[C@H](CO)[C@@H](O)[C@H](O)[C@H]6O)[C@]5(C)[C@H]4CC[C@]3(C)[C@H]1[C@@H]2C` the inhibition was 6%.
`CC(=O)O[C@H]1Cc2ccccc2N(C(N)=O)c2ccccc21` has an inhibition of 3%.
With `COc1ncnc(NS(=O)(=O)c2ccc(N)cc2)c1OC` the inhibition was -4%.
`C[C@@H]1CC[C@@H]2O[C@@]23C(=O)C(=O)[C@@H]2[C@@H](C2(C)C)[C@@]13C` gave an inhibition of -3%.
`CC(=O)NCCCC[C@H](N)C(=O)O` has an inhibition of 9%.
With `Nc1c(O)cccc1C(=O)O` the inhibition was -2%.
With `CC(C)=CCNc1ncnc2nc[nH]c12` the inhibition was 13%.

Sample 3
Target: SRSF protein kinase 2 (SRPK2, Homo sapiens, UniProt P78362)
Sequence of UniProt P78362 (whole entry, looked up): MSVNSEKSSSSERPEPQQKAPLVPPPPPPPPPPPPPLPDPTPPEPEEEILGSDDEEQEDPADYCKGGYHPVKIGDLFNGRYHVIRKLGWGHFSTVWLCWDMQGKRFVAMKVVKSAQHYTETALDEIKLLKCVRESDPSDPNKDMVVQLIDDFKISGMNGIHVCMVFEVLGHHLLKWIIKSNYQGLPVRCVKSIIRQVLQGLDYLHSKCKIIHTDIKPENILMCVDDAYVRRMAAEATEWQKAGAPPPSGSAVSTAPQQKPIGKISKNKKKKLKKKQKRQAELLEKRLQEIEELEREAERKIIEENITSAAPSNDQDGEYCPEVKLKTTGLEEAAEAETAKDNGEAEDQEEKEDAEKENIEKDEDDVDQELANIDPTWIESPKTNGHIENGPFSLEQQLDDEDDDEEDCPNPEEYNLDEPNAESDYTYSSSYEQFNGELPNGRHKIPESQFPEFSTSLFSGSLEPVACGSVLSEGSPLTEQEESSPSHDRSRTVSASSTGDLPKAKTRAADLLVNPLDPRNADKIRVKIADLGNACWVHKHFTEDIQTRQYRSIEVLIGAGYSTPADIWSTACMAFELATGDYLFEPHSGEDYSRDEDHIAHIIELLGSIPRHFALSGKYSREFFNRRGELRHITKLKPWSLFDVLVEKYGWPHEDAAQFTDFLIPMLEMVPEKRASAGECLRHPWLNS
Effect on: enzyme activity
Mode: inhibitor
Concentration: 0.5 µM
Reference: control
The remaining activity of `CCOc1nc(NC(=O)Cc2cc(OC)ccc2OC)cc(N)c1C#N` is reported as 97.8%.
The remaining activity of `O=C1c2ccccc2-c2n[nH]c3cccc1c23` is reported as 86.1%.
The remaining activity of `Cc1cc2ncc(-c3ccccc3)nc2cc1C` is reported as 95.3%.
With `Cc1cn(-c2cc(NC(=O)c3ccc(C)c(Nc4nccc(-c5cccnc5)n4)c3)cc(C(F)(F)F)c2)cn1` the remaining activity was 102%.
With `CCN(CC)C(=O)c1ccc(Nc2nc(OCC3CCCCC3)c3[nH]cnc3n2)cc1` the remaining activity was 87.8%.
`CN([C@@H](Cc1ccc(OS(=O)(=O)c2cccc3cnccc23)cc1)C(=O)N1CCN(c2ccccc2)CC1)S(=O)(=O)c1cccc2cnccc12` gave a remaining activity of 99.4%.
`O=C(Nc1cccc(Nc2nccc(Nc3cccc(C(F)(F)F)c3)n2)c1)C1CC1` gave a remaining activity of 104%.
The remaining activity of `N#Cc1c(NC(=O)c2cccc3ccccc23)sc2c1CCCC2` is reported as 99.2%.
For `Cc1nc2cc3nc(-c4cccs4)cnc3cc2n1C`, the remaining activity was 104%.
For `O=C(NC(NC(=S)Nc1ccc(F)c([N+](=O)[O-])c1)C(Cl)(Cl)Cl)C(c1ccccc1)c1ccccc1` (stereo not shown), the remaining activity was 103%.
For `Nc1cccc(-c2cc3c(Oc4cccc(O)c4)ncnc3[nH]2)c1`, the remaining activity was 99.1%.
The remaining activity of `CN(C)C[C@H]1CCn2c(c(C3=C(c4cn(C)c5ccccc45)C(=O)NC3=O)c3ccccc32)C1` is reported as 91.5%.
`O=c1cc(-c2cccc3c2Sc2ccccc2S3)oc(N2CCOCC2)c1` has a remaining activity of 110%.
`CCN(CC)CCNC(=O)c1c(C)[nH]c(/C=C2\C(=O)Nc3ccc(Cl)cc32)c1C` has a remaining activity of 93.7%.
The remaining activity of `Cn1nc2c3c(cccc31)C(=O)c1ccccc1-2` is reported as 97.2%.
For `c1ccc(-c2[nH]ncc2-c2ccnc3ccccc23)nc1`, the remaining activity was 97.2%.
The remaining activity of `Ic1cccc(CSc2nnc(-c3ccncc3)o2)c1` is reported as 97.4%.
For `O=C1C(Cl)=C(N2C(=O)CCC2=O)C(=O)c2ccccc21`, the remaining activity was 100%.
`N#C/C(=C\c1ccc(O)c(O)c1)C(=O)NCc1ccccc1` has a remaining activity of 96.6%.
The remaining activity of `COc1cc2ncnc(Nc3ccc(O)c(Br)c3)c2cc1OC` is reported as 63%.
`c1ccc(-c2cnc(Nc3ccc(OCCN4CCCC4)cc3)s2)cc1` gave a remaining activity of 103%.
`COc1cc2ncnc(Nc3cccc(Cl)c3)c2cc1OC` gave a remaining activity of 88.2%.
`CCN(CC)CCNC(=O)c1c(C)[nH]c(/C=C2\C(=O)Nc3ccc(F)cc32)c1C` gave a remaining activity of 95%.

Sample 4
Target: DNA polymerase theta, ATPase domain (POLQ, Homo sapiens, UniProt O75417)
Sequence of UniProt O75417 (whole entry, unmodified, looked up): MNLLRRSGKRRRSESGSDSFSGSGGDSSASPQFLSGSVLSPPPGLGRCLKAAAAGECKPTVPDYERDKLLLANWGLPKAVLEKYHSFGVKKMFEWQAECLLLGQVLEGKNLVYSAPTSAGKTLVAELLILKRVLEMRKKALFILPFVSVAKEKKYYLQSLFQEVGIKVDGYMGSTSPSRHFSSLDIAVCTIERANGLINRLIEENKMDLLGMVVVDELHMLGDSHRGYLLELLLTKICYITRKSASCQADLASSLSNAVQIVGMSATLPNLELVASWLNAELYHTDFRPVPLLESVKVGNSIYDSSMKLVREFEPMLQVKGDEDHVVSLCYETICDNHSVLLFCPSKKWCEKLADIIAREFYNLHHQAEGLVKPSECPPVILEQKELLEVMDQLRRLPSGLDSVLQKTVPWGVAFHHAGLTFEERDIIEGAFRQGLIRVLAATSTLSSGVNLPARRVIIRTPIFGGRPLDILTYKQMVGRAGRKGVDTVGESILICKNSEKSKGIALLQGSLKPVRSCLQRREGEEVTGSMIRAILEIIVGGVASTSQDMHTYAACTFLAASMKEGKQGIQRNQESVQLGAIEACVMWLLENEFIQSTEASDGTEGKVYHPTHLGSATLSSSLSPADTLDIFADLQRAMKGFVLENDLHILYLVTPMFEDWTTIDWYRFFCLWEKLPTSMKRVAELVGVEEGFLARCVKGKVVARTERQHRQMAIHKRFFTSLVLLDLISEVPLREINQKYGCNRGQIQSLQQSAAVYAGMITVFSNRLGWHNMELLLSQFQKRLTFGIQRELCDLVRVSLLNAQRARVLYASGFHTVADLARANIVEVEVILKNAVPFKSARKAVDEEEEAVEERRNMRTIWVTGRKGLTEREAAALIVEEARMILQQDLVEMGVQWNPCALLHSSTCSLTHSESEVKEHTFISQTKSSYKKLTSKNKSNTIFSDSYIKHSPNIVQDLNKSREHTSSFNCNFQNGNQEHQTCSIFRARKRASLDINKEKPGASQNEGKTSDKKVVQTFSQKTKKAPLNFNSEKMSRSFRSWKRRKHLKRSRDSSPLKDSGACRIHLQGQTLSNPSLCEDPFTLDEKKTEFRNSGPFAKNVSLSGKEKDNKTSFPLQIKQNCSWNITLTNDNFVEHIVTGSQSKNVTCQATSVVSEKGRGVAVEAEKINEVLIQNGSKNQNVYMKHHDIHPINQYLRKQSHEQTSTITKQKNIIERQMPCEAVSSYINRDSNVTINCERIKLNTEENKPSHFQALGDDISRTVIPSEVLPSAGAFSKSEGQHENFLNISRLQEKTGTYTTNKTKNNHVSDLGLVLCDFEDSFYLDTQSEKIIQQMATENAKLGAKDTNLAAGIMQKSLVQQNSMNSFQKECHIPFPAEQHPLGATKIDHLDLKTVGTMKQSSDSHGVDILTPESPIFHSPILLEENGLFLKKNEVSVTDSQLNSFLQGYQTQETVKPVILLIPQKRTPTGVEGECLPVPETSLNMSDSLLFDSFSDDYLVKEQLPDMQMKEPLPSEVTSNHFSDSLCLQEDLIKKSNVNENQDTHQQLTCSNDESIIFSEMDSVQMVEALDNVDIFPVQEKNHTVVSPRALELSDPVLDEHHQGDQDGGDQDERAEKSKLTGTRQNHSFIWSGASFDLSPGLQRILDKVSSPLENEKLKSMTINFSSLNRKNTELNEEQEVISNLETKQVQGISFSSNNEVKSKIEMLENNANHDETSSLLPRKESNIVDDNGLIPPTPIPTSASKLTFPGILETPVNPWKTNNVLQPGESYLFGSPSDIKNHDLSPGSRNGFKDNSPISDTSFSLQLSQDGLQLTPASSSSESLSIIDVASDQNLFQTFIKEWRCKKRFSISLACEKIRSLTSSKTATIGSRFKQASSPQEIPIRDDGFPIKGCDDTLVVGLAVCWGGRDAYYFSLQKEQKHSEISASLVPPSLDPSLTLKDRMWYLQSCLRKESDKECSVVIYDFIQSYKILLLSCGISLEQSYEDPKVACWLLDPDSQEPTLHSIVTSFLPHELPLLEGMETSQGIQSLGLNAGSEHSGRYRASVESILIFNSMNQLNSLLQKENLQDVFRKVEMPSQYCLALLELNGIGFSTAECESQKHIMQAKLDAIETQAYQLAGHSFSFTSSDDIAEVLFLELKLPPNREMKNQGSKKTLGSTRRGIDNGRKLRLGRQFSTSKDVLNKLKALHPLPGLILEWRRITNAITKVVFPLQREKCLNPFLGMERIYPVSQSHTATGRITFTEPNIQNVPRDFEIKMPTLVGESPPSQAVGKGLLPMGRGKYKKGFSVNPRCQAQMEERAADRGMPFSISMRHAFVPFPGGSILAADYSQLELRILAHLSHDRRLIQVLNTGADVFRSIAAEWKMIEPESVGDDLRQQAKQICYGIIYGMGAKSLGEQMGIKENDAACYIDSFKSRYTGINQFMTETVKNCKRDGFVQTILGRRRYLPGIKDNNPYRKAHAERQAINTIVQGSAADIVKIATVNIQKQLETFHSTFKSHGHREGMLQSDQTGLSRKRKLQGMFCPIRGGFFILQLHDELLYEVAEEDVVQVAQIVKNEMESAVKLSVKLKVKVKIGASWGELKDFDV
Effect on: enzyme activity
Mode: inhibitor
Concentration: 77 µM
Reference: untreated
The remaining activity of `O=C(O)c1cc(=O)c2ccccc2o1` is reported as 101%.
The remaining activity of `C=C[C@@]1(C)CC(=O)[C@]2(O)[C@@]3(C)[C@@H](O)CCC(C)(C)[C@@H]3[C@H](O)[C@H](OC(C)=O)[C@@]2(C)O1` is reported as 108%.
`CC(C)(C(=O)c1cccnc1)c1cccnc1` gave a remaining activity of 100%.
With `N#Cc1ccc(C(c2ccc(C#N)cc2)n2cncn2)cc1` the remaining activity was 95.6% and 101%.
With `O=C1CC[C@@H](C(=O)N2CSC[C@H]2C(=O)O)N1` the remaining activity was 99.4%.
`NCCNc1ncc(C(N)=O)c(Nc2cccc(C(F)(F)F)c2)n1` has a remaining activity of 108%.
`CCN(CC)CCNC(=O)c1ccc(NS(C)(=O)=O)cc1` has a remaining activity of 114%.
With `COc1cc([C@H]2Oc3cc([C@H]4Oc5cc(O)cc(O)c5C(=O)[C@@H]4O)ccc3O[C@@H]2CO)ccc1O` the remaining activity was 87.5% and 95.6%.
With `CN1CC[C@H](c2c(O)cc(O)c3c(=O)cc(-c4ccccc4Cl)oc23)[C@H](O)C1` the remaining activity was 109% and 79.3% and 107% and 100%.
With `C[C@](N)(Cc1ccc(O)c(O)c1)C(=O)O` the remaining activity was 96%.
